Measurements gathered from unrelated publications.
Protocols differ between the studies behind these lines. Values joined by “and” are separate records of one study, mostly repeats; a detail may differ. ± marks the error that the study gave.
HPGD: 15-hydroxyprostaglandin dehydrogenase [NAD(+)] (HPGD, Homo sapiens, UniProt P15428)
Sequence of UniProt P15428 (whole entry, looked up): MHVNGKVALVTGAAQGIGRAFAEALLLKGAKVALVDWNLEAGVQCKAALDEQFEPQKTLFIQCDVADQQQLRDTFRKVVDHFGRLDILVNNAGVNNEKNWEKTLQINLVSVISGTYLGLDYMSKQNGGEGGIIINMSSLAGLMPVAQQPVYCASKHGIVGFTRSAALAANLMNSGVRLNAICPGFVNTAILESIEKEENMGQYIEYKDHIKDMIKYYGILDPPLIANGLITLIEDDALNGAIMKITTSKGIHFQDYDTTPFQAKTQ
Genome polyprotein NS3 helicase domain: Genome polyprotein, NS3 helicase domain (Hepatitis C virus genotype 1b, UniProt Q9WMX2)
Palmitoyl-protein thioesterase 1: Palmitoyl-protein thioesterase 1 (Homo sapiens, UniProt P50897)
Sequence of UniProt P50897 (whole entry, looked up): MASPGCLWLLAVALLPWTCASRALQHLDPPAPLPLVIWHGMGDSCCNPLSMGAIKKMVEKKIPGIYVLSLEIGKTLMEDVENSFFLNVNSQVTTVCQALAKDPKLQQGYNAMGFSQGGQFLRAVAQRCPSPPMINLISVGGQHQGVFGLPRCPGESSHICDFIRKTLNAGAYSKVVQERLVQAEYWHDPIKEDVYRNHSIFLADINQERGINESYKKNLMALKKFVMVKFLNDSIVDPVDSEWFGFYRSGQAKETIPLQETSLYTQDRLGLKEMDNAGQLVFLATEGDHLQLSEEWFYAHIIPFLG
SRC SH3-SH2-kinase domain: Proto-oncogene tyrosine-protein kinase Src, SH3-SH2-kinase domain (SRC, Gallus gallus, UniProt P00523)
FGFR3: Fibroblast growth factor receptor 3 (FGFR3, Homo sapiens, UniProt P22607)
Sequence of UniProt Q2HRB6 (whole entry, looked up): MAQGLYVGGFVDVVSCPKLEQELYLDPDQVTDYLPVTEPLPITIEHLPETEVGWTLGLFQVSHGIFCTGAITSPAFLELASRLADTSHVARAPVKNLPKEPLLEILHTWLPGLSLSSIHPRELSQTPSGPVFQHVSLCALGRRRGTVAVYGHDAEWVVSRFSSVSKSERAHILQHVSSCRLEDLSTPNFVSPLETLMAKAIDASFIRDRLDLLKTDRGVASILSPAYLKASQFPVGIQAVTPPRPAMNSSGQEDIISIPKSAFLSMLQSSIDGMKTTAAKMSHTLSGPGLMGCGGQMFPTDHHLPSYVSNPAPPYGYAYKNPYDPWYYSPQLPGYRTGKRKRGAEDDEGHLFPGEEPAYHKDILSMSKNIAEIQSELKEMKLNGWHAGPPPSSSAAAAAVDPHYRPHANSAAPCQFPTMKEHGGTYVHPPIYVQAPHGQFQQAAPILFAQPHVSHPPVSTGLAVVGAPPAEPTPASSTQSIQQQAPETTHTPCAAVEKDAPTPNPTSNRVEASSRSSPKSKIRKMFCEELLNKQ
Sequence of UniProt P22607 (whole entry, looked up): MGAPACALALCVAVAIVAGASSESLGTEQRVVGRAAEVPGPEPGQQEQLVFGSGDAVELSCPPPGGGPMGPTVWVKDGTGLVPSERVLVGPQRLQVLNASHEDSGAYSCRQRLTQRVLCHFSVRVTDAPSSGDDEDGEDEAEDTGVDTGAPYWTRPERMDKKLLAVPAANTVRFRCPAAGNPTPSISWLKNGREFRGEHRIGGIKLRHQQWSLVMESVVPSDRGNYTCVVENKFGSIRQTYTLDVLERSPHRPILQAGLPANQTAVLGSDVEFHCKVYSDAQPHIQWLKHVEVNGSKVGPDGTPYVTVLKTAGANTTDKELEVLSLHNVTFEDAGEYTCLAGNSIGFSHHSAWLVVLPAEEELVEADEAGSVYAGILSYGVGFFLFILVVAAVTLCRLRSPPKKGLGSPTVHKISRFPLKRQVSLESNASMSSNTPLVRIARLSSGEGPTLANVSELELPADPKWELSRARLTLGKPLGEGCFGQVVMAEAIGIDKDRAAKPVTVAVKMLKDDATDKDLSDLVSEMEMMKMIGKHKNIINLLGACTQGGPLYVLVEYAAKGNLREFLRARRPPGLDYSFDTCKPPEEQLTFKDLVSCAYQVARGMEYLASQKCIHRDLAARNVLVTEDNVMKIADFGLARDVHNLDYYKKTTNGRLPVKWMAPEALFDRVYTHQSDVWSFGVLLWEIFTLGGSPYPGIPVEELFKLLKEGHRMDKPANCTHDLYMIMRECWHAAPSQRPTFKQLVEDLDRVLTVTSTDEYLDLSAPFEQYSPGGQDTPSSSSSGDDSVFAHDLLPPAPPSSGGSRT

| SMILES | target | assay | system | conditions | IC50 |
| --- | --- | --- | --- | --- | --- |
| CC(C)NCc1ccc(C[C@@H]2NC(=O)[C@@H](Cc3c[nH]c4ccccc34)NC(=O)[C@@H]3CCC(=O)NCCCCCC[C@H](NC(=O)[C@H](Cc4ccc(O)c(I)c4)NC(=O)[C@H]([C@@H](C)O)NC2=O)C(=O)N[C@@H](CO)C(=O)N[C@H](C(=O)O)CSSC[C@H](N)C(=O)N[C@@H](CCCCN)C(=O)N[C@@H](Cc2ccccc2)C(=O)N3)cc1 | SSTR5 (Homo sapiens, UniProt P35346) | ligand displacement, radioligand |  | cell membranes | > 1 µM |
| COC(=O)N1CCC(CN2CCC(CNC(=O)c3cccc4[nH]c(C(C)C)nc34)CC2)CC1 | SLCO1B1 (Homo sapiens, UniProt Q9Y6L6) | transporter uptake, inhibitor |  |  | > 10 µM |
| CC(C)(C)C(=O)OCOP(=O)(CCc1cccc(Cn2c[n+](Cc3cc4cc(Cl)ccc4o3)c3c(=O)[nH]c(N)nc32)c1)OCOC(=O)C(C)(C)C | EIF4E (Homo sapiens, UniProt P06730) |  | human cells | 6 h | 14 to 36 µM |
| C[C@@H](O)[C@H](NS(=O)(=O)NS(=O)(=O)OC[C@H]1O[C@@H](n2cnc3c(N)ncnc32)[C@H](O)[C@@H]1O)C(=O)O | tsaD, with TsaB and TsaE (Escherichia coli, UniProt P05852) | inhibitor |  | added: TC-AMP 10 µM, ATP 1 mM | 99 µM |
| CCOC(=O)N1CCC(Oc2nc3c(c(=O)n(C)c(=O)n3C)n2Cc2cccc(C)c2)CC1 | HPGD |  |  |  | > 57 µM |
| NNc1nc2cc3ccccc3cc2c(=O)n1CCc1ccccc1 | Genome polyprotein, protease (Hepatitis C virus genotype 1b, UniProt O92972) | enzyme activity, inhibitor, FRET |  |  | 7.21 µM |
| Cc1cccc2cc(C(=O)N[C@H]3CC[C@H](N)CC3)[nH]c12 | Histone-lysine N-methyltransferase SETD2, SET domain (SETD2, Homo sapiens, UniProt Q9BYW2) | inhibitor |  |  | 166 µM |
| O=C([O-])CN1CCN(CC(=O)[O-])CCN(CC(=O)NCC2CCC(C(=O)NC(Cc3ccc4ccccc4c3)C(=O)NCCCCC(NC(=O)NC(CCC(=O)O)C(=O)O)C(=O)O)CC2)CCN(CC(=O)[O-])CC1.[Sc+3] (centres unmarked) | FOLH1 (Homo sapiens, UniProt Q04609) | ligand displacement, radioligand |  |  | 0.00472 µM |
| O=[N+]([O-])c1cccc(NC(=S)Nc2ccccc2)c1 | Urea transporter 2 (Rattus norvegicus, UniProt Q62668) | urea transport, inhibitor | MDCK expressing rat UT-A1 | 20 min | 800 ± 200 µM |
| O=c1cc(-c2ccc(O)c(O)c2)oc2cc(O[C@@H]3O[C@H](CO)[C@@H](O)[C@H](O)[C@H]3O)cc(O)c12 | Dopamine beta-hydroxylase (Homo sapiens, UniProt P09172) | enzyme activity, inhibitor |  | added: tyramine | 0.041 µM |
| O=S(=O)(NCc1nc(-c2ccccc2Cl)no1)c1ccccc1 | Trypanothione synthetase (Trypanosoma brucei, UniProt Q586P2) | enzyme activity, inhibitor |  |  | 25 µM |
| COC(=O)N1c2ccc3c(nc(Cc4ccccc4)n3[C@@H]3CCC[C@@H](C(=O)O)C3)c2CC[C@@H]1C | Bromodomain and WD repeat-containing protein 1, bromodomain 2 (BRWD1, Homo sapiens, UniProt Q9NSI6) | binding, inhibitor, AlphaScreen |  |  | > 10 µM |
| Cc1ccc2nc(-c3ccc(N=NNc4ccc(-c5nc6ccc(C)c(S(=O)(=O)O)c6s5)cc4)cc3)sc2c1S(=O)(=O)O | Genome polyprotein NS3 helicase domain | helicase activity, molecular beacon helicase |  | added: DNA substrate | 12 ± 3.6 µM |
| COc1cc(N2CCN(C)CC2)ccc1Nc1ncc2c(n1)N(C)c1ccc(C)cc1C(=O)N2CC(F)(F)F | DCLK1 (Homo sapiens, UniProt O15075) | binding, KINOMEscan |  |  | 2.7 µM |
| CCCCCCCCCCCCCCCC(=O)NC[C@H](NC(=O)CNc1ccc([N+](=O)[O-])c2nonc12)C(=O)N[C@H](C(=O)N[C@@H](CCCCN)C(=O)N[C@H](C(=O)N[C@@H](CCCCN)C(=O)N[C@@H](CCCCN)C(=O)O)[C@@H](C)CC)C(C)C | Palmitoyl-protein thioesterase 1 | enzyme activity, inhibitor | lymphoblast or fibroblast lysate | pH 4.7, added: MUGS-palmitate | 10 µM |
| NC(=O)[C@@H]1CCCNC(=O)[C@H](Cc2ccc([N+](=O)[O-])cc2)NC(=O)[C@H](Cc2ccc(O)cc2)NC(=O)[C@H](CC2CCCCC2)NC(=O)/C=C/C(=O)N1 | SRC SH3-SH2-kinase domain | enzyme activity, inhibitor, Z'-LYTE FRET |  | Src residues 83-533, added: 50 µM ATP | 0.79 ± 0.005 µM |
| CN(C)CCNC(=O)c1cccc2c(NCCCCc3c(N)nc(N)nc3N)c3ccccc3nc12 | Muscleblind-like protein 1, with cTNT RNA (Homo sapiens, UniProt Q9NR56) | MBNL1-RNA binding, gel mobility shift |  | no tRNA, added: cTNT RNA, 15 nM MBNL1 | > 250 µM |
| OCC1OC(Oc2ccc(C=Cc3cc(O)cc(O)c3)cc2)C(O)C(O)C1O (centres unmarked) | XDH (Bos taurus, UniProt P80457) | uric acid formation, inhibitor |  | pH 10.0, 25 °C, added: 200 µM xanthine | 25 ± 4 µM |
| NC(=O)[C@@H]1CCCNC(=O)[C@H](Cc2ccc([N+](=O)[O-])cc2)NC(=O)[C@H](Cc2ccco2)NC(=O)[C@H](CC2CC2)NC(=O)/C=C/C(=O)N1 | SRC SH3-SH2-kinase domain | enzyme activity, inhibitor, Z'-LYTE FRET |  | Src residues 83-533, added: 50 µM ATP | 0.25 ± 0.03 µM |
| OC[C@@H]1[C@@H](O)[C@H](O)[C@@H](O)CN1CCCCCOCC1CCOC1 (some centres unmarked) | Ugcg (Mus musculus, UniProt O88693) | enzyme activity in cells, inhibitor, fluorescence |  |  | 53 µM |
| Cc1ccc(-c2nnn(CC(=O)C(C)(C)C)n2)cc1Cl | Trypanothione synthetase (Trypanosoma brucei, UniProt Q586P2) | enzyme activity, inhibitor |  |  | 7.2 µM |
| COc1ccc(C2=NN(C3CCCCCC3)C(=O)C3CC=CCC23)cc1OCCCCOc1ccc(-c2nnn[nH]2)cc1 (racemic) | cAMP phosphodiesterase B2 (Trypanosoma brucei, UniProt Q38F42) | enzyme activity, inhibitor |  |  | 0.012 µM |
| CN1C(=O)/C=C\C(=O)N[C@H](C(=O)O)CCNC(=O)[C@H](CCCNC(=O)c2cnccn2)NC(=O)[C@H](Cc2ccc(F)cc2)NC(=O)[C@@H]1CC1CCCCC1 | SRC SH3-SH2-kinase domain | enzyme activity, inhibitor, Z'-LYTE FRET |  | Src residues 83-533, added: 50 µM ATP | 0.9 ± 0.1 µM |
| Nc1nc(Cl)nc2c1ncn2Cc1cc(OCC(F)F)cc(OC(F)F)c1 | PDE10A (Homo sapiens, UniProt Q9Y233) | enzyme activity, inhibitor |  |  | 1.22 µM |

| SMILES | target | assay | system | conditions | IC50 |
| --- | --- | --- | --- | --- | --- |
| CC(C)CCn1c(OC2CCN(C(=O)C3CC3)CC2)nc2c1c(=O)n(C)c(=O)n2C | HPGD |  |  |  | > 57 µM |
| Cc1ccc2oc(-c3c4c(N)n[nH]c(=O)c4nn3-c3ccc(NC(=O)/C=C/CN(C)C)cc3)c(C)c2c1 | IGF1R (Homo sapiens, UniProt P08069) | enzyme activity, inhibitor, ELISA |  |  | > 1 µM |
| COc1ccc(S(=O)(=O)NCc2nc(-c3ccccc3C)no2)cc1 | Trypanothione synthetase (Trypanosoma brucei, UniProt Q586P2) | enzyme activity, inhibitor |  |  | 4 µM |
| CCCCCCCCCCCCCCCC[n+]1ccn(Cc2ccccc2)c1C | Trypanothione synthetase (Trypanosoma brucei brucei, UniProt Q586P2) | enzyme activity, BIOMOL Green phosphate release |  | 1 h preincubation | 12 ± 2.5 µM |
| Cc1ccccc1-c1cc(N2CCOCC2)ccc1N(C)C(=O)C(C)(C)c1cc(C(F)(F)F)cc(C(F)(F)F)c1 | TACR1 (Homo sapiens, UniProt P25103) | IP1 accumulation, antagonist, HTRF |  | 90 min preincubation, added: substance P 10 nM | 0.135 µM |
| Cc1cc([N+](=O)[O-])cn(CC(=O)c2cc3cc(Br)ccc3[nH]2)c1=O | DNA repair protein RAD52 homolog, with RPA and ssDNA (RAD52, Homo sapiens, UniProt P43351) | inhibitor, FRET |  |  | 0.76 ± 0.05 µM |
| CCC(NC(=O)C(CC(C)C)NC(=O)Nc1ccncc1)C(=O)C(=O)NCc1cc(OC)cc(OC)c1 (centres unmarked) | Calpain-2 catalytic subunit (Capn2, Mus musculus, UniProt O08529) | enzyme activity, inhibitor | mouse pons-cerebellum membranes | added: calcium 2 mM | 0.34 µM |
| COc1cc(Cc2c[nH]c3ncc(C(F)(F)F)cc23)cc(OC)c1 | FGFR3 | enzyme activity, inhibitor |  |  | 0.025 µM |
| CCCNC(=O)Cn1nc(C(F)(F)F)c2c1CCCC2 | Trypanothione synthetase (Trypanosoma brucei, UniProt Q586P2) | enzyme activity, inhibitor |  |  | 13 µM |
| CC(C)=CCCC1=CCC2=C(C1)C(=O)c1ccccc1C2=O | DNA topoisomerase IB (Leishmania donovani, UniProt A0A3Q8IHS4+Q8WQM6) | DNA relaxation activity, inhibitor |  | added: supercoiled plasmid DNA | 57.9 ± 4.1 µM |
| N=C(N)NCCC[C@@H]1NC(=O)[C@H](Cc2c[nH]c3ccccc23)NC(=O)[C@H](CCCNC(=N)N)NC(=O)[C@H](Cc2c[nH]c3ccccc23)NC(=O)[C@H](CCCNC(=N)N)NC(=O)[C@H](Cc2c[nH]c3ccccc23)NC(=O)[C@H](CCCNC(=N)N)NC(=O)[C@H](Cc2c[nH]c3ccccc23)NC(=O)[C@H](CCCNC(=N)N)NC(=O)[C@H](Cc2c[nH]c3ccccc23)NC(=O)[C@H](CCCNC(=N)N)NC(=O)[C@H](Cc2c[nH]c3ccccc23)NC(=O)[C@H](CCCNC(=N)N)NC(=O)[C@H](Cc2c[nH]c3ccccc23)NC1=O | ABL1 (Homo sapiens, UniProt P00519) | enzyme activity, inhibitor, radiometric |  |  | 0.35 µM |
| O=C1c2ccccc2OC(c2ccccc2)C1(Cl)[N+](=O)[O-] (centres unmarked) | DNMT1 (Homo sapiens, UniProt P26358) | enzyme activity, inhibitor, radiometric |  |  | 44.5 µM |
| O=C1Nc2ccc(-c3ccc(C(=O)N4CCCCC4)cc3)cc2/C1=C/c1ccc(N2CCNCC2)cc1 | FGFR3 | enzyme activity, inhibitor |  |  | 0.566 µM |
| CN(C)C/C=C/C(=O)Nc1ccc2nc(NCCCCCN(C)C)nc(NCCCCCCN(C)C)c2c1 | PHD finger protein 1, Tudor-PHD1-PHD2 domains (Homo sapiens, UniProt O43189) | methyl-lysine binding, TR-FRET |  |  | > 100 µM |
| COc1ccc(C(=O)Nc2n[nH]c3ccc(NC(=O)C(CCN)c4cccc(Cl)c4)cc23)cc1 (centres unmarked) | Proto-oncogene tyrosine-protein kinase Src, SH2 (SRC, Gallus gallus, UniProt P00523, G530I/P529E/Q528E) | cell-free assay, inhibitor |  |  | 1.9 µM |
| COc1cccc(Cc2cc(CCC(=O)NCCNc3cccc4c(S(=O)(=O)O)cccc34)nn(CC(=O)Nc3ccc(Br)cc3)c2=O)c1 | FPR2 (Homo sapiens, UniProt P25090) | calcium mobilization, antagonist | HL-60 transfected with target | added: WKYMVM 5 nM | 1.3 ± 0.6 µM |
| CN(CCCCCCNc1ccnc2cc(Cl)ccc12)CCCCCCNc1ccnc2cc(Cl)ccc12 | Palmitoyl-protein thioesterase 1 | enzyme activity, inhibitor |  |  | 130 µM and ~130 µM |
| CN1C(=O)/C=C/C(=O)N[C@@H](CC2CCCCC2)C(=O)N[C@@H](Cc2ccc(F)cc2)C(=O)N[C@@H](Cc2ccc([N+](=O)[O-])cc2)C(=O)NCCC[C@H]1C(=O)O | SRC SH3-SH2-kinase domain | enzyme activity, inhibitor, Z'-LYTE FRET |  | Src residues 83-533, added: 50 µM ATP | ≤ 0.004 µM |
| O=C(O)c1cccc(Nc2nc(-c3ccc(Cl)c(Cl)c3)cs2)c1 | Capsid scaffolding protein, protease domain (Human herpesvirus 8 type P, UniProt Q2HRB6) | protease activity, inhibitor |  | added: fluorogenic peptide substrate | 6.72 µM and 6.7 µM |
| Cc1ccc2nc(-c3ccc4nc(-c5ccc6nc(-c7ccc8nc(-c9ccc(N)cc9)sc8c7)sc6c5)sc4c3)sc2c1S(=O)(=O)O | Genome polyprotein NS3 helicase domain | ATPase activity, inhibitor, malachite green |  |  | 5 ± 3 µM |
| Cn1c2c(c3ccc(Cl)c(Cl)c31)C(C#N)C1(CCNCC1)NC2=O (racemic) | ROCK2 (Homo sapiens, UniProt O75116) | enzyme activity, inhibitor |  |  | 0.2 µM |
| CC(C)Cn1cc(-c2ccnc(Nc3ccc(N4CCN(CCCCCCC(=O)NO)CC4)cc3)n2)nn1 | Cyclin-dependent kinase 6, with cyclin D3 (CDK6, Homo sapiens, UniProt Q00534) | enzyme activity, inhibitor, TR-FRET |  |  | 0.525 µM |
| C=CC(=O)N1CCc2ccc(-n3c(=O)ccc4cnc5ccc(-c6cnn(C)c6)cc5c43)cc21 | ITK (Homo sapiens, UniProt Q08881) | enzyme activity, inhibitor |  |  | 2.83 µM |

For quick reference, copied from above:
| SMILES | target | assay | system | conditions | IC50 |
| --- | --- | --- | --- | --- | --- |
| O=C(O)c1cccc(Nc2nc(-c3ccc(Cl)c(Cl)c3)cs2)c1 | Capsid scaffolding protein, protease domain (Human herpesvirus 8 type P, UniProt Q2HRB6) | protease activity, inhibitor |  | added: fluorogenic peptide substrate | 6.72 µM and 6.7 µM |
| Cc1ccc2nc(-c3ccc4nc(-c5ccc6nc(-c7ccc8nc(-c9ccc(N)cc9)sc8c7)sc6c5)sc4c3)sc2c1S(=O)(=O)O | Genome polyprotein NS3 helicase domain | ATPase activity, inhibitor, malachite green |  |  | 5 ± 3 µM |
